Measurements gathered from unrelated publications.
A part holds a random share of what one study measured. Positions count from the first letter of the parent shown.

Sample 1
Target: RING finger protein unkempt homolog, zinc fingers 1-6, GST-SBP tag (UNK, Homo sapiens, UniProt Q9C0B0, residues 30-357)
Sequence of UniProt Q9C0B0 (30-357, looked up): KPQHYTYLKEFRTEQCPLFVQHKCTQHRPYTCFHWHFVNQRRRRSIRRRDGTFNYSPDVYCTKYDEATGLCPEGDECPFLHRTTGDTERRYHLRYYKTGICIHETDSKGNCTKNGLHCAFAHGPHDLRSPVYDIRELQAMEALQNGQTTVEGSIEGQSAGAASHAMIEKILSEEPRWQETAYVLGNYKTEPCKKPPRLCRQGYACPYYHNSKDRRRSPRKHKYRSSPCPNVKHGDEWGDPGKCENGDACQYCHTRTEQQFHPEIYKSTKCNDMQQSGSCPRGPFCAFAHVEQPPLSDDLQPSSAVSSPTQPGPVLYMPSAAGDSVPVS
Method: RNA Bind-n-Seq
Molecule type: RNA
Medium: in vitro
Concentration: not given
Setting: RNA with constant flanks, human and mouse sites, ends assumed
Baseline: input RNA pool
Reading: higher = stronger binding
Endpoint: bound/input enrichment
All sequences stand within: GGGAGUUCUACAGUCCGACGAUC … CAACAGAGGAUUGAGCAUCA
UGGUUUCUAACAGCUGAAGGCAAUGAAUGGCUACUUCAAGGACAGAUAGCAGCUGGAGAUAUAGAGAACAUUUCCAGUCAACCAACAAUUUCACUACAAAUUCCUGAUGAUUGCUUAUCA: 0.21 ratio
CUUCAGGUUUCUUUCAUUAUGUGUUUGCUGUAAGACUUUGUACAUUUUUGUGCAUAUUGGUAUCAUUUGGCAGUAGGGCUGGAACCAAAGUAUUACUCUCUUUACAAAAUUUUAAUUUAA: 2.58 ratio
AGUGGUGGUGCCUAUCCCAACAUCCCCCUCUCUUCUCCCUUACCUGGAGUACCCAAGCCUGUUUUUGCUACAGUUGAUGGACAGGAAAAGUUUGAAACCAAAGUAACCACAUUGGAUAAU: 0.404 ratio
UAUAGCUACGCCCUUGGUCAGGGGUGGGGUGGGGCUGGUUGAGGGUGGGGGUGGGAUGGGACUAGAGGGCAACAUUGAAGGGGUUAAACAGGUUCCUGAAUUUGUUUGCCUGGGCCCAAU: 1.92 ratio
GUCCUACAUAGAACGGUCCCUUCAGUUACCAUUCUGAUUGCUCUAUGCUGCUUUCCUCCUCUUAAAGUUUCAUGAGCUCUUGGGUUAAAUGGUUUGUUAUGAGCAGGCUUUCCAUUACUC: 0.212 ratio
GGCUCCACAGUUGGGAGGUAGCUUUGCAGUUUGGGGAGGACUGUUUUCCACGAUUGACUGCAGUAUGGUUCAAAUACGAGGCAAAGAAGACCCCUGGAACUCCAUCACUAGCGGUGCCUU: 0.504 ratio
CUAUGUAAAACGACAGCCUUACAUAGUUUCCUGUCAACACAAAUUUAGGAUAUAAUACAUUUUAGAAAUUUAUUAUUUUUCAAUUAUUUUUGGUUUUUUUACUACUUACCUUGUAAAAAU: 68.6 ratio
GACUCCAGCAAGAAGAAAAGGUCAAAACCACGUGUUUCCCAAAAGUCCAGACUACAAUGAUUCAGCUGACUUGAGGACAAGGCCUAGCAUUUGGCUGAGCAGAGCCCUCUUCCUUGCCCU: 0.142 ratio

Sample 2
Target: OGT, full length, His-tagged (human)
Method: phage display, sequencing
Medium: in vitro
Concentration: 1 µg OGT
Setting: single substitutions, 15-mer displayed peptide, unchanged parent 16.7
Baseline: input library
Reading: higher = stronger binding
Endpoint: fold enrichment
Starting sequence: peptide; NSEYMPQYQIIFAHQ
SSEYMPQYQIIFAHQ [N1S]: 16.5 fold
NSEGMPQYQIIFAHQ [Y4G]: 0.509 fold
NSETMPQYQIIFAHQ [Y4T]: 1.18 fold
NSMYMPQYQIIFAHQ [E3M]: 14.5 fold
NSEIMPQYQIIFAHQ [Y4I]: 2.19 fold
NSAYMPQYQIIFAHQ [E3A]: 19.5 fold
NSEYTPQYQIIFAHQ [M5T]: 8.89 fold
NSLYMPQYQIIFAHQ [E3L]: 22.1 fold

Sample 3
Target: ABI1, truncated, D143A, DHFR fusion (Arabidopsis thaliana, UniProt P49597)
Method: DHFR PCA, dose-response
Medium: yeast
Setting: Hill fit, mean, not affinity
With: (+)-ABA, dose series
Reading: lower = more sensitive
Endpoint: ABA EC50
Starting sequence: PYL1, truncated, DHFR fusion (Arabidopsis thaliana, UniProt Q8VZS8); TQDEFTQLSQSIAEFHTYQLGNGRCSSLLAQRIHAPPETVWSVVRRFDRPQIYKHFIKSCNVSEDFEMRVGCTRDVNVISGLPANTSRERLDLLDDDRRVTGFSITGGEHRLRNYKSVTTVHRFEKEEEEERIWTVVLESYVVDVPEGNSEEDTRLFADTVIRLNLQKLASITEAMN
M68E: 25.5 µM
V100T: 25 µM
E127G: 2.34 µM
A13M: 3.03 µM
S104L: 347 µM
Y53R: 82.5 µM
P146E: 492 µM
V145L: 11.4 µM

Mixed results
Starting sequence: PafA, mature enzyme, eGFP fusion (Elizabethkingia meningoseptica, UniProt Q9KJX5); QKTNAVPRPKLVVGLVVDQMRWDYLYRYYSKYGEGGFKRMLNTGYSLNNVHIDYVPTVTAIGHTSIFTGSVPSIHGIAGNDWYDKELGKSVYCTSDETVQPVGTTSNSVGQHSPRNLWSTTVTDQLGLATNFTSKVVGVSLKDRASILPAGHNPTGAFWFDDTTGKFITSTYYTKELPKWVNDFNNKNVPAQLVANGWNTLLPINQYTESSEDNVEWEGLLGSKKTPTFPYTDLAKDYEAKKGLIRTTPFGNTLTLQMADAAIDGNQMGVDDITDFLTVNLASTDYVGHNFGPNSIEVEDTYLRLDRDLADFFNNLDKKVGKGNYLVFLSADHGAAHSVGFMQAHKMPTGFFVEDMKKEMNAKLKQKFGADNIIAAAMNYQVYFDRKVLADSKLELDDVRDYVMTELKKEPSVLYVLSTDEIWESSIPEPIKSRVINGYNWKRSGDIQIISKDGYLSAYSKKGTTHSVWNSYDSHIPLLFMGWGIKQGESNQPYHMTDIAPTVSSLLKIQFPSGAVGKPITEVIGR
S457G  oxyanion analog dissociation constant (vanadate, free oxyanion; microfluidic competitive inhibition; in vitro, cell-free expressed; not given, derived from inhibition constants, unchanged parent 676 nM; lower = stronger binding): 616 nM

Repeated from above (sample 2):
NSEYTPQYQIIFAHQ [M5T]: 8.89 fold
NSLYMPQYQIIFAHQ [E3L]: 22.1 fold
